Assay results of several laboratories.
A part holds a random share of what one study measured.
Sequence of UniProt P06213 (whole entry, looked up): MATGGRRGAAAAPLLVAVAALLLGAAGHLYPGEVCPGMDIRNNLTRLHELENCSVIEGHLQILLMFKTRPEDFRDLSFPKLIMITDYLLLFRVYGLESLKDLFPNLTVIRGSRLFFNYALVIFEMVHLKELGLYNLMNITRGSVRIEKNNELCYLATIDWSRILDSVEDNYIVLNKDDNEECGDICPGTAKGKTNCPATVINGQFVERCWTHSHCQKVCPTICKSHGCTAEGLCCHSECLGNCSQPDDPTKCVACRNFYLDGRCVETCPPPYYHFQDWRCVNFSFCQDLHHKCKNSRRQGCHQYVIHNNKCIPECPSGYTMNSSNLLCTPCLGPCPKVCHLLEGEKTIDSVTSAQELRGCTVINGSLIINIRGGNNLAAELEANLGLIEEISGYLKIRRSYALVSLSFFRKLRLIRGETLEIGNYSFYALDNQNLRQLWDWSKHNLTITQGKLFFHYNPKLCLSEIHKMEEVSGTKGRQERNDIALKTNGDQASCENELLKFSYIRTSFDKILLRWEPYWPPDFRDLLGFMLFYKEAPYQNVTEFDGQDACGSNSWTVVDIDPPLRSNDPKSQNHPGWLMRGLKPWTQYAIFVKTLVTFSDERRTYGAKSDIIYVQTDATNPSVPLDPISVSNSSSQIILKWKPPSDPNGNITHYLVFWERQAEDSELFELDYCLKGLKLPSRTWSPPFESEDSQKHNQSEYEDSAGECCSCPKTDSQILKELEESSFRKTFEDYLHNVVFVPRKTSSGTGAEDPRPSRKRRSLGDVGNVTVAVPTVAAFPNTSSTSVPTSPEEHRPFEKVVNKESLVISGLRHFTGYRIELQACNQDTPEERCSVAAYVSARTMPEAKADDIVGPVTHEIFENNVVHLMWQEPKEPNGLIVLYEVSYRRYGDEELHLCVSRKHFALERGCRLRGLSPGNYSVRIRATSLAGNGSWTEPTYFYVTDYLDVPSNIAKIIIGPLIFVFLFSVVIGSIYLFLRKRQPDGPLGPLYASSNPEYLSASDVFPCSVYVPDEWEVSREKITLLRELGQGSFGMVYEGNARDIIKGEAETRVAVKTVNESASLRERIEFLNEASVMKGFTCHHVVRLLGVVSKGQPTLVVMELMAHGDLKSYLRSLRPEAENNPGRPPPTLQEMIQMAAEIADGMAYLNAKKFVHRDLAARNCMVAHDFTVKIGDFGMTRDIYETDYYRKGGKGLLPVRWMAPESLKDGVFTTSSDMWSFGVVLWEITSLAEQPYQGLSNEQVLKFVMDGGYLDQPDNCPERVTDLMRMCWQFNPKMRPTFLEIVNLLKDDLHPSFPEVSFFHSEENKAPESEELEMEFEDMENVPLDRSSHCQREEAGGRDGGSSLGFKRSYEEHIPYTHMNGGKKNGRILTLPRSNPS
Sequence of UniProt Q8NG66 (whole entry, looked up): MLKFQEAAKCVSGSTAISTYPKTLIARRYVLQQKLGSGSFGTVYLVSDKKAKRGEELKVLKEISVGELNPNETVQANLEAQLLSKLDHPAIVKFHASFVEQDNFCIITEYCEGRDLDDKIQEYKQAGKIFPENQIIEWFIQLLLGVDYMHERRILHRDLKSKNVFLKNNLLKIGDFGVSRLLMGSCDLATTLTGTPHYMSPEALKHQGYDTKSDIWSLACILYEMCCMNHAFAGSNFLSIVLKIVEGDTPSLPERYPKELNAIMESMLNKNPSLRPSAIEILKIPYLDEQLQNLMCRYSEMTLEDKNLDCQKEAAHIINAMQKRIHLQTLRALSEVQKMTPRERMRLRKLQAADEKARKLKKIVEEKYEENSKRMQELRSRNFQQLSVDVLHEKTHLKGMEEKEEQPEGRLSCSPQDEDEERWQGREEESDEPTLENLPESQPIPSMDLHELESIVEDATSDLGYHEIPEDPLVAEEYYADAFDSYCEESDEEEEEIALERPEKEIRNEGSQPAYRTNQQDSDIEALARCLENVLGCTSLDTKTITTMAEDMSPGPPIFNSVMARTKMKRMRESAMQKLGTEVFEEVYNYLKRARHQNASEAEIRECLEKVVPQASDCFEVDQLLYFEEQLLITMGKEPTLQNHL
Sequence of UniProt P51817 (whole entry, looked up): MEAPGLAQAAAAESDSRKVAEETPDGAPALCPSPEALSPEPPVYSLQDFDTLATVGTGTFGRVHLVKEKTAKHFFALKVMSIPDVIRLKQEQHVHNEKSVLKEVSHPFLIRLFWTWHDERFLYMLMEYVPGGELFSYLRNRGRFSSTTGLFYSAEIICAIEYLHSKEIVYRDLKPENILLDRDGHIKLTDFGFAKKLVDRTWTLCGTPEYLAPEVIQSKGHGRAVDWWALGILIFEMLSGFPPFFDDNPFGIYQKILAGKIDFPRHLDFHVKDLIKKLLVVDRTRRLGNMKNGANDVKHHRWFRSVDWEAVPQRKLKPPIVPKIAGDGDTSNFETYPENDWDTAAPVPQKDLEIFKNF
Sequence of UniProt Q9H2K8 (whole entry, looked up): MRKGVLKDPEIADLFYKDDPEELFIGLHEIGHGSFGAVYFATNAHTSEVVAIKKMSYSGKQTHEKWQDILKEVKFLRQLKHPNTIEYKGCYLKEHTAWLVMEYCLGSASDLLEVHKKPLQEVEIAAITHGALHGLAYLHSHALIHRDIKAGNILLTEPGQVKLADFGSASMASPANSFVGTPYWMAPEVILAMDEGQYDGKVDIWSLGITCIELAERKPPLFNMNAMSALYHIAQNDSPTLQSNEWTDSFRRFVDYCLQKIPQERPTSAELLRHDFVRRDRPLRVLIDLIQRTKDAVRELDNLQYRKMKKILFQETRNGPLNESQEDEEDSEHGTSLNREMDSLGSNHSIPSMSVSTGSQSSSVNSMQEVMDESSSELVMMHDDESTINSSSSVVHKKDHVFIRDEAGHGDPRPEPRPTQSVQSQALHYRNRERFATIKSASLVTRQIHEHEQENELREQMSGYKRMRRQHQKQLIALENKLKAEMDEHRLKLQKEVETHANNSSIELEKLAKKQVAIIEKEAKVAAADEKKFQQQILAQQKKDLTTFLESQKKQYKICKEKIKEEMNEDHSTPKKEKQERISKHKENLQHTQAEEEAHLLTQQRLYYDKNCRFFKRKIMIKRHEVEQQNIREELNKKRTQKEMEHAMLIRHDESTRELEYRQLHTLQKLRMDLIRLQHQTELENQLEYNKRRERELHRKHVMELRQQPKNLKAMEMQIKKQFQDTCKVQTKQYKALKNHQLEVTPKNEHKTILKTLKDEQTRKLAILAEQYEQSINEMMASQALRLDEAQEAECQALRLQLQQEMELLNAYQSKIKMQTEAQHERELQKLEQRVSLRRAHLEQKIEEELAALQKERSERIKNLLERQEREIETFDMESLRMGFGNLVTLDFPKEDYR
Sequence of UniProt P35916 (whole entry, looked up): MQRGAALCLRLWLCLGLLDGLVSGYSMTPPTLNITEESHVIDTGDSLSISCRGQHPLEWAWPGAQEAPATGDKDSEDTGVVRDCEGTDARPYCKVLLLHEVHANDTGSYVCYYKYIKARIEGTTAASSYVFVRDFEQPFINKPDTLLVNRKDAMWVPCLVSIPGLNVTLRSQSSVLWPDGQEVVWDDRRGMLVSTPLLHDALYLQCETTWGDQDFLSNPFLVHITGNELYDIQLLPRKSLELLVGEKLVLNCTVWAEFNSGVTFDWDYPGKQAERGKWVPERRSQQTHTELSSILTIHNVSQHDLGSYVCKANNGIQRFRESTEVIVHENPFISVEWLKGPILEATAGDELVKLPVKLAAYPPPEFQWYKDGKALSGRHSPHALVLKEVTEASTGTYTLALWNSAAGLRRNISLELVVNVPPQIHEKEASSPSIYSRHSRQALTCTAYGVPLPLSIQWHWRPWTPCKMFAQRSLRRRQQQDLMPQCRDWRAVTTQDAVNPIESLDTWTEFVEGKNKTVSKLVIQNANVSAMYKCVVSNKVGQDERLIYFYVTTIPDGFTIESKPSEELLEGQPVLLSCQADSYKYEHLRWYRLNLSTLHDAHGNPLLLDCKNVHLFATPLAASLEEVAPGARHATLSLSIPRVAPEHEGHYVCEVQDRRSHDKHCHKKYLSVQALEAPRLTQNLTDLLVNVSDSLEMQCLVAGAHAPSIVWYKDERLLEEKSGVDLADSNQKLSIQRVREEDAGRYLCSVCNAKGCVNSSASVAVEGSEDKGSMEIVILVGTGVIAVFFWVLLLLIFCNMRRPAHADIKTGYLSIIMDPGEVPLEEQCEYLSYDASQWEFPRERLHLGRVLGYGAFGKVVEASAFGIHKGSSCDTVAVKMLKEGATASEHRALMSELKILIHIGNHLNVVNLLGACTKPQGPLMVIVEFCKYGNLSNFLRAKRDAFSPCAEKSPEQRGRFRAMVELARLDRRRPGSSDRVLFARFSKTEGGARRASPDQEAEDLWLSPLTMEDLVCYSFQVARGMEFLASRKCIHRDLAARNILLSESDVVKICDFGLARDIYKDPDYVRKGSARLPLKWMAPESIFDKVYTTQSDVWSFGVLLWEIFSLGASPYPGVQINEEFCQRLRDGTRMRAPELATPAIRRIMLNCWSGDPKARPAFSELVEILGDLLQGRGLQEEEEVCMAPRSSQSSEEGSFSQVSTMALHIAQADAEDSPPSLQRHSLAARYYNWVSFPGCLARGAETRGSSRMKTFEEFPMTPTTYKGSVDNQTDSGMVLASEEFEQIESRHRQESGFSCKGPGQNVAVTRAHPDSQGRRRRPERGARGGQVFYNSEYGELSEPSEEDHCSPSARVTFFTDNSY
Sequence of UniProt O00506 (whole entry, looked up): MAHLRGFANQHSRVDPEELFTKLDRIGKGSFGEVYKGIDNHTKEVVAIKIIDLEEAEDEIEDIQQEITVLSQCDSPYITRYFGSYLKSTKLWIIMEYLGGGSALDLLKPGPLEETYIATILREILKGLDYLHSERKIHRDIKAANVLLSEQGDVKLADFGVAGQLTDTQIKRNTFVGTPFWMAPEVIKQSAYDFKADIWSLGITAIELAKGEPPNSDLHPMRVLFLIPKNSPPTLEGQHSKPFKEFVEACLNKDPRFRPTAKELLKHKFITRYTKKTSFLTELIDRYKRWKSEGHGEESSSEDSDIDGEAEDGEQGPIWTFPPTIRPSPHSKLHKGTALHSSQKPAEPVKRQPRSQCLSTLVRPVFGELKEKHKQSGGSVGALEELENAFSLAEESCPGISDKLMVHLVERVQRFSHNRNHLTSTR

Series 1
SMILES: CCC(=O)Nc1ccc2ncnc(Nc3cccc(Br)c3)c2c1
Effect on: enzyme activity
Action: inhibitor
Tested at: 0.5 µM
Baseline: control
It gave 88.7% for remaining activity (LIM domain kinase 1 (LIMK1, Homo sapiens, UniProt P53667)).
The remaining activity was 104% (HIPK1 (Homo sapiens, UniProt Q86Z02)).
For STK25 (Homo sapiens, UniProt O00506): remaining activity read 102%.
It gave 91.5% for remaining activity (FLT4 (Homo sapiens, UniProt P35916)).
AKT1 (Homo sapiens, UniProt P31749) — remaining activity: 95.8%.
It gave 95.9% for remaining activity (NLK (Homo sapiens, UniProt Q9UBE8)).
The remaining activity was 103% (NEK11 (Homo sapiens, UniProt Q8NG66)).
For PASK (Homo sapiens, UniProt Q96RG2): remaining activity read 88.7%.
It gave 107% for remaining activity (FYN (Homo sapiens, UniProt P06241)).
The remaining activity was 101% (PKN1 (Homo sapiens, UniProt Q16512)).
For PRKX (Homo sapiens, UniProt P51817): remaining activity read 95.7%.
It gave 89.2% for remaining activity (TAOK3 (Homo sapiens, UniProt Q9H2K8)).
FER (Homo sapiens, UniProt P16591) — remaining activity: 95.6%.
ITK (Homo sapiens, UniProt Q08881) — remaining activity: 89.7%.
It gave 86.5% for remaining activity (Cyclin-dependent kinase 3, with cyclin E (CDK3, Homo sapiens, UniProt Q00526)).
For CDC42BPA (Homo sapiens, UniProt Q5VT25): remaining activity read 101%.
It gave 101% for remaining activity (Insulin receptor (INSR, Homo sapiens, UniProt P06213)).

Series 2
Target: Histone acetyltransferase KAT6A, winged helix 2, GST fusion (KAT6A, Homo sapiens, UniProt Q92794, residues 85-181)
Method: protein binding microarray
Molecule type: double-stranded DNA, one strand shown
Medium: in vitro
Tested at: not given
Notes: 8-mer, flanks averaged, mean of 2 arrays, mostly near background
Baseline: not given
Reading: higher = stronger binding
Residues (chain): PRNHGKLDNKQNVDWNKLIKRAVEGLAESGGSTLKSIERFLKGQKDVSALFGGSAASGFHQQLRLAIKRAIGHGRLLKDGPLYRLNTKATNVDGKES
`CCTGTGGA` gave an E-score of -0.0272.
With `AACACTAA` the E-score was -0.0229.
`ACACTTCA` has an E-score of -0.0416.
For `CGTTCGCC`, the E-score was -0.0674.
The E-score of `CGATTGGC` is reported as 0.014.
The E-score of `CGTGCTAG` is reported as -0.204.
The E-score of `ATGGGCCC` is reported as -0.0663.
With `CTGCTAGA` the E-score was 0.0409.

Series 3
Compound: CS(=O)(=O)c1cc(C2(NC(=O)c3cncc4c3cnn4-c3ccc(F)cc3)CC2)ccn1
Effect on: cell-free assay
Method: competition with immobilised ligand
Tested at: 1 µM
For PIK3CA (Homo sapiens, UniProt P42336, M1043I): remaining binding read 93%.
It gave 94% for remaining binding (MAP3K7 (Homo sapiens, UniProt O43318)).
The remaining binding was 96% (PAK6 (Homo sapiens, UniProt Q9NQU5)).
The remaining binding was 100% (FLT3 (Homo sapiens, UniProt P36888, D835H)).

Series 4
Target: PABPC1L2, full length, GST fusion (mouse, UniProt A0ABA7IW68)
Method: RNAcompete
Molecule type: RNA
Medium: in vitro
Tested at: 20 nM
Notes: 7-mer, probes averaged, single round
Baseline: mean of 7-mers
Reading: higher = stronger binding
Residues (chain): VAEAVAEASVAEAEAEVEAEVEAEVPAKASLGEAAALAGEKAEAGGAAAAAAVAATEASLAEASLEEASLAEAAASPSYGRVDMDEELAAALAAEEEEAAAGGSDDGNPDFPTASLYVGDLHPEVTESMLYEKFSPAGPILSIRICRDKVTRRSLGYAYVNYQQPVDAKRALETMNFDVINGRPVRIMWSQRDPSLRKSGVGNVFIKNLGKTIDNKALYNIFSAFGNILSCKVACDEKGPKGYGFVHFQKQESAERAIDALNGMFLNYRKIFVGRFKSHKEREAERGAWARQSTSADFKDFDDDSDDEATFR
`UCAAACG` gave a 7-mer Z-score of -0.0663.
With `UCGCAAC` the 7-mer Z-score was -0.229.
`GUAGGAU` gave a 7-mer Z-score of -0.0863.
With `AUGCAAG` the 7-mer Z-score was 0.0352.
`UAUAUUU` has a 7-mer Z-score of -0.277.
`GUCCACA` has a 7-mer Z-score of -0.293.
With `GUGCAUA` the 7-mer Z-score was -0.0464.
For `AUCUGAA`, the 7-mer Z-score was 0.0714.

Mixed results
For `GLO1 (Homo sapiens, UniProt Q04760)`, cross-linked residues read “K88 to K781” (WDR72 (Homo sapiens, UniProt Q3MJ13); cross-linking MS; cell fractions; together with: DSSO).
